Experimental data collected from several papers.
Every numbered part comes from another study and shows a few of its results, in no order. Substitutions count along the parent as printed.

Series 1 — technique: universal PBM; molecule type: double-stranded DNA, one strand shown; medium: in vitro; concentration: not given; reading: higher = stronger binding
Target: Sal-like protein 4, full length isoform B (SALL4, Homo sapiens, UniProt Q9UJQ4-2, residues 1-616)
Notes: 8-mer, flanks averaged, mean of replicates
Oligonucleotide | E-score
AGACTAAT | 0.0939
AAACGAAC | 0.138
CCTCCGAG | -0.304
TCGCTTCA | 0.0599
AGCAGCAT | -0.0654
GCACCTCA | -0.16
GCCGCACC | -0.291
ACAGGATC | -0.138
CTCCCTTA | -0.0649
GACTTCGC | -0.157
GTAAGGCA | 0.0815
TCAGATGA | 0.104
AAGGGATT | 0.0409
ACTCTATG | -0.108
CGCTTGAC | -0.179
CTAACTTA | 0.191
CAATGGTC | 0.00925
CCCATTCA | -0.02
GCCGACTA | -0.138
GTCAGGGA | -0.143
AGGGCCCC | -0.344
CCTGTAAC | 0.0377
AATACAGT | 0.237
CACTACTC | -0.0565
CTCACTTC | -0.206

Series 2 — technique: RNA Bind-n-Seq; molecule type: RNA; medium: in vitro; concentration: 365 nM; reference: no-protein control; reading: higher = stronger binding
Target: RNA binding protein fox-1 homolog 2, RRM domain, GST-SBP tag (RBFOX2, Homo sapiens, UniProt O43251-10, residues 100-194)
Notes: natural RNA segment, single round, ends assumed
Shared flanks, not repeated: GGGAGUUCUACAGUCCGACGAUC … UGGAAUUCUCGGGUGCCAA
Residues (chain): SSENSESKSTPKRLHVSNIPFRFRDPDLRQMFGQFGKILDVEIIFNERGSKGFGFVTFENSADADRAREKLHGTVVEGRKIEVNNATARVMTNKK
Oligonucleotide | RBNS enrichment (R)
UUGAAAACCCAUGCUGUGAACUGUUUUACAAACUUACAGAGAUAAAUGCAUUUGAUUAUCCUGAUUUACCAGUUGUGAGAGGCAAGAAAUUUGUUGAGUCUGUAUAUAAA | 2.33
UGUAUGCAGACACAUGAGCUGUGGGGUAACAAUCAAAACGUAAUCUUUCAUAGAUAGCCAUUACAUUUCUUUAAAUUUUUCAAUGCCGAUGUGUAUUCUAUAAGAGAAUA | 0.764
AUCAUCUCUAUUGGCCUGGGGUGCCUGUGCUAUAAAUGAGUUUCUUCACAUGAAAAACACAGCCAGCCCAAGAUGACUUAUCUGGGUUUAGGAUUCAAUAGUAUUCACUA | 0.224
UUGUCUUAAGAUGGAAAUACAGUUAUUUCAUCUUUUAUUCAAGGAAGUUUUAACUUUAAUACAGCUCAGUAAAUGGCUUCUUCUAGAAUGUAAAGUUAUGUAUUUAAAGU | 0.748
GCAGCCGUGUAGGGGGCCUCCCAUCUGCUAAGCGUUUUUCCGUUGAGCCGCUCCAAAAACACUAAGCUGGGGACGCCAGGUGCCCCCCCACCCCGGCUCCCUGGCCCUAU | 0.363
CAGUGCAUGCCCCACAGGGAGAAGCCUUCCUUCUCACCCAGGGAGUCCAGCCAUUUUCACCUCCCCUGGUCCAUGCUCAGGAAGUCUGGUCACCCUGGCAAACUGCACCU | 1.78
GAAACCCCUAAUGUGUGUCCAUAUGAUCUUUCUGUACAUUCUAUUCUCUUACAAAUCUGUGCAUCAGGAAAAUAUGCAUACUUUCAAAUAGAACAGAGGUAUUUGCAACC | 0.512
UGUUGGGUUAUUCCAGCCAAAGACAUUUCAAGUGCCUGUAACUGAUUUGUACAUAUUUAUAAAAAUCUAUUCAGAAAUUGGUCCAAUAAUGCACGUGCUUUGCCCUGGGU | 5.63
ACAUUGACUGGGAAACCUGAGUGAGACCCAGCAACUGCUUCUCUCCCUUCUCUCUCCUGAGGUGAAGCUUUUCCAGGUUUUGUUGAAGAGAUACCUGCCAGCACUUCUGC | 0.264
GCGUGUAUCUCACUGUUUUCCGUAUUGGGAACAGAUGGUAUAGAUUUGCCAAGGCCUUUAUUUUAAAGUGUUCUUGGAAAAUCGUAUUUAAAUUUGCAAUUAUUCUAAUU | 0.327
AAUGCAUUUGAUGAGUGCUGGAAACUUCUUAAGUGCUUUACAGUUUGUUUUCAUUGUUUGCAGCGGAUCACUGGACAUCAAAGAUUCAUUGCACUUAUGAACAAGGAACC | 0.505
GCCAAAUAUCUGGGUUUCCCCCUCUCCUCAUUCCCUAGCAAACCCCAAUUAUCUUCCAAGAUAGGAGAUAUUUCCCAUCCCCUUCCUUUGUAAAUAUCUCAUCUCCCACU | 1.13

Series 3 — technique: DHFR PCA, deep sequencing; medium: yeast; added: (+)-ABA 0.11 µM; reference: wild-type fitted maximum; reading: higher = stronger binding
Target: ABI1, truncated, D143A, DHFR fusion (Arabidopsis thaliana)
Notes: methotrexate growth selection, single substitutions
Starting sequence: PYL1, truncated, DHFR fusion (Arabidopsis thaliana); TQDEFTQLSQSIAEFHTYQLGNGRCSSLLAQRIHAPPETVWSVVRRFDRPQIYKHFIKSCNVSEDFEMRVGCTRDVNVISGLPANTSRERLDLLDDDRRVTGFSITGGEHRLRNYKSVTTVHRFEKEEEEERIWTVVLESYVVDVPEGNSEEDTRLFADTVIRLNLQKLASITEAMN; partner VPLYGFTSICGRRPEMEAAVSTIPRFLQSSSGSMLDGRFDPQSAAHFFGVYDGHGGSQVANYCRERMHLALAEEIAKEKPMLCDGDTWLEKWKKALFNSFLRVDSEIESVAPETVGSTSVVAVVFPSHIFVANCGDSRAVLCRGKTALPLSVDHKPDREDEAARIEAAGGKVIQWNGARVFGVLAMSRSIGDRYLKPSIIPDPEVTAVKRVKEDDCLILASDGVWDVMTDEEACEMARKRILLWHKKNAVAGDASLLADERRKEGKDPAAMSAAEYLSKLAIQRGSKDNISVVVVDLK
Change | relative binding score [%]
R90N | 1.93
V161K | 4.08
L28K | -4.95
D75E | 58
R155P | -3.91
L82F | 69.9
H122W | -3.29
L112V | -3.25
K116Q | 28
G108H | 1.82
P37C | 3.11
D3W | 27.2
V70M | 4.32
R99D | -5.86
V142Q | 20.4

Series 4 — technique: competition protein-binding microarray; molecule type: double-stranded DNA, one strand shown; medium: in vitro; concentration: 2 µM; added: Cbf1 competitor, 0.05 µM; reading: higher = stronger binding; shared flanks, not repeated: … GTCTTGATTCGCTTGACGCTGCTG
Target: Phosphate system positive regulatory protein PHO4, full length, GST-tagged (PHO4, Saccharomyces cerevisiae, UniProt P07270, residues 1-312)
Notes: whole 60-bp probe, lowest competitor level
Target sequence (chain): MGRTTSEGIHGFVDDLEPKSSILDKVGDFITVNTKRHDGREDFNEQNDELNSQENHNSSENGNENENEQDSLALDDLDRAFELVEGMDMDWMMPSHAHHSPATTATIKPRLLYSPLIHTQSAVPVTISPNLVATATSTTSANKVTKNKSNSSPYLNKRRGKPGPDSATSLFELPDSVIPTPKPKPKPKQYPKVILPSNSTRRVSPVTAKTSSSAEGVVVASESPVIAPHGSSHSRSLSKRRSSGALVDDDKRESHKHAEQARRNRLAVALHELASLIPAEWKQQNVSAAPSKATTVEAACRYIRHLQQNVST
Oligonucleotide | fluorescence intensity [a.u.]
TGCGCAACAACTTGACCCGTGGGTGTATGTCTAGAA | 9610
TGGCAAGTCTTGTAGCATGTGCGCTAACATCGTTTA | 11900
GTCTTGTCTCATTGCAGCGTGGGTGTCCCCACTTCA | 7660
CGTCCTAGTGATTGGTGTGTGGGTGCCATGAGGAAG | 7330
CCTTTTCTTCTTGCGTACGTGCCGATCAATGCGTCG | 6790
ACAGAATATCCCGACCACATGGCAAGACCAAGAAAG | 9910
AATGTCGACCTTTTGGACGTGGGTACATGGACGAGC | 5520
TGGAAACCTGCCTGTCACATGATGTAAAATCTCCAT | 7600
CTTTATGAGTACCGTCACGTTTCTTGTTGAAGATAA | 12800
CCTTCCGCCAAGGAGCACATGCGGCCCACTAAAACT | 11500
GATGAGTGAGGAGAAAACGTGCAAATAATAAAATTA | 15100
TTCAACAGGATCATTAATGTGACGGTCGATCGAAGC | 3540
CATACCCAACCTTGCTCGGTGGGTGAAGATATTTGT | 3870
CGGGGTTAAGTTTGAAGGGTGGGTGGCTTGCAGCAG | 4700
CTAACGAAGGTTTGTCACGGGACTTACAAGCCAAGT | 6440
CGTCCTAGTGATTTTCACGTGACATCCATGAGGAAG | 12500
ACAGGTATCTGGGGCAACGTGGGCTTAAGATTAGCC | 15200

Series 5 — technique: protein binding microarray; molecule type: double-stranded DNA, one strand shown; medium: in vitro; concentration: not given; reference: not given; reading: higher = stronger binding
Target: Histone acetyltransferase KAT6A, both winged helices, GST fusion (KAT6A, Homo sapiens, UniProt Q92794, residues 1-181)
Notes: 8-mer, flanks averaged, mean of 2 arrays, mostly near background
Residues (chain): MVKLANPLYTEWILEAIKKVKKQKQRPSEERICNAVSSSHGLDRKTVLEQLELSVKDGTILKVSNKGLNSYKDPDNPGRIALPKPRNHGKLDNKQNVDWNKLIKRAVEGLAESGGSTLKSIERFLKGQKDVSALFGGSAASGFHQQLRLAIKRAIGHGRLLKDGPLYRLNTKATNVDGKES
Oligonucleotide | E-score
CTCCCGCC | 0.194
CGATGCAG | -0.00945
CAAGGCAG | -0.316
AGACGCCA | 0.12
AACTCTAT | -0.136
GGGCGCCC | 0.245
CATCGTCC | -0.0065
GCCGCTAA | 0.283
GCGCAGAA | 0.207
ACCGAAAC | 0.112
AAATTGGT | -0.127
GGTGCGCA | 0.226
ATGCTCGC | 0.0436
AATGCCCT | -0.168
GGAATTCA | -0.123
CTGGACCA | -0.196
CGAGGTAC | -0.05
GCAACTTA | 0.00243
AAGCTTTG | -0.147
GGAATTAC | 0.0689
CACCCTCG | -0.164
CGCCCTTA | 0.0274
GGTACAAA | -0.069
GCGAAGGA | 0.0635
ACGGACGG | 0.26

Series 6 — technique: RNA Bind-n-Seq; molecule type: RNA; medium: in vitro; concentration: not given; reference: input RNA pool; reading: higher = stronger binding
Target: RING finger protein unkempt homolog, zinc fingers 1-6, GST-SBP tag (UNK, Homo sapiens, UniProt Q9C0B0, residues 30-357)
Sequence of UniProt Q9C0B0 (30-357, looked up): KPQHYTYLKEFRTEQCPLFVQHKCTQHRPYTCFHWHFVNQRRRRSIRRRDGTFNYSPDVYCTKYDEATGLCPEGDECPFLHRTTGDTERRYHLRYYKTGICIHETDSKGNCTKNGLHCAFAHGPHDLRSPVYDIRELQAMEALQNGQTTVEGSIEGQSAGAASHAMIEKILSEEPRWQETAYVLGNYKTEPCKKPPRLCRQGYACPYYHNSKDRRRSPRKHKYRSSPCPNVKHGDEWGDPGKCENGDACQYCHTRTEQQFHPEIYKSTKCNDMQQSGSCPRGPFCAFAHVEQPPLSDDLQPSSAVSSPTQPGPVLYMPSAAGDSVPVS
Notes: RNA with constant flanks, human-mouse chimeric sites, ends assumed
Shared flanks, not repeated: GGGAGUUCUACAGUCCGACGAUC … CAACAGAGGAUUGAGCAUCA
Oligonucleotide | bound/input enrichment [ratio]
AUGCAGUAUGAGACCAACAGCAUGGACUUCAAAGUUGGGGCAGAUGGGACAGUCUUCGCCACCCGGGAGCUGCAGGUCCCCUCCGAGCAGGUGGCGUUCACGGUGACUGCGCGGGAAAGC | 0.193
ACCUCCCCCUCCCGCCUCACCCCACCCCCGCUUUUUGGAAAGUUUUUGGCGUUUCUUUUUUUUAGAAAUACAAAGUGAUUACAGUUUCCCCCGCAAGUGGGGCUUGAAGGGCUUGACGGA | 0.661
GUGACUGGUGUUAAGAUUUCCCCUCAGCAAAGAAGUGUAGCAGUGACCAUAAUUCCAUCUGUGGUGAAUGCCAAUCAGAUUGUGGAGCUGGUCCCAGACCUCAGUUUAGACAUGGGAACU | 0.391
UGUAACUCUUAUCUGUAAGGUUCCCCCCCCCUACUGUCAAAAAAUAUGCAUGUAUAGUAAUUAGGACUUCAUUCCUCCAUGUUUUCUUCCCUUAUCUUACUGUCAUUGUCCUUAAACCUU | 3.42
UUGGAAGGACCAGAGCCUAAUCAACUGAAACCAUUAGUCAUACAGGCUAUGCCCACCCUAAUAGAAUUAAUGAAAGACCCCAGUGUAGUUGUUCGAGAUACAGCUGCGUGGACUGUGGGC | 2.47
CUCAGAGAUGUGGCAUAUCAGUAUGUGAAAAAGGGGGCUCGUAUAUUUUUGGAAGGGAAAGUGGACUAUGGUGAAUACAUGGAUAAAAACAAUGUGAGGCGGCAAGCAACAACAAUCAUA | 0.423
GGACAUCUGUCAAAUUGUUAUGUUCCUGUGAAACAAGUGAACACUCUGAUACACUUCAUCUGCUUGUACAUCUGUAUGAUAGAGAAAUGUAAAUAUGAAUAUAUUUAAUGAAUUCAACUU | 0.165
CUGAAAAACACAGAUAUCAAAGUUGUUGACUUUGGAAGUGCAACAUAUGACGACGAACAUCACAGUACUUUGGUGUCUACCCGGCACUACAGAGCUCCCGAGGUCAUUUUGGCUUUAGGU | 0.284

Repeated from above (series 5):
Oligonucleotide | E-score
GGAATTCA | -0.123
CTGGACCA | -0.196
CGAGGTAC | -0.05
GCAACTTA | 0.00243
AAGCTTTG | -0.147
GGAATTAC | 0.0689
CACCCTCG | -0.164
CGCCCTTA | 0.0274
GGTACAAA | -0.069
GCGAAGGA | 0.0635
ACGGACGG | 0.26
